Experimental data of several laboratories.
Each numbered part is a random draw from the data of one study; scales do not carry over between parts.

Sample 1
Target: RNA binding protein fox-1 homolog 2, RRM domain, GST-SBP tag (RBFOX2, Homo sapiens, UniProt O43251-10, residues 100-194)
Technique: RNA Bind-n-Seq
Form: RNA
Sample: in vitro
Concentration: 365 nM
Notes: natural RNA segment, single round, ends assumed
Relative to: no-protein control
Reading: higher = stronger binding
Endpoint: RBNS enrichment (R)
Target sequence (chain): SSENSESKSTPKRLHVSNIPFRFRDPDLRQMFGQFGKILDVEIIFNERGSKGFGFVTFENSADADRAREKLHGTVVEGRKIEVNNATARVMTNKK
Oligonucleotide = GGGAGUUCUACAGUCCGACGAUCGGGGCCUGGCAGCCAUGGAGAAGGCUGAGAGGCAGAAGGACACGGGGUCUUCCUGCCUCACCACCUUGCUGUGCAUGAUGAUGCUGACCCACCCCCUUUACCUCCCUUCCUGGAAUUCUCGGGUGCCAA; result = 5.48
Oligonucleotide = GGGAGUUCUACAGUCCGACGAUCCUCACUCCUGAGAGAUUUCUGCCUUCUGUGAGUUGGGUUAAAGCUCUGGAAUUAUCUACUAUCCCAAUCCACUACCCUCACCUGGCAAUAUUUGUCUGUUUUUGUUUGUUUGGAAUUCUCGGGUGCCAA; result = 0.895
Oligonucleotide = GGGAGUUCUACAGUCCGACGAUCGUGCACACAAACCUUAACAAGACUGCAAAUACUCCAGAAGGAAGUCAUUUAGUUAUGAACGAAAUAAGAAAAGUGAGAACUUCAAAAGCUGUGGUCUUAAAUACUAGACCUGGAAUUCUCGGGUGCCAA; result = 0.901
Oligonucleotide = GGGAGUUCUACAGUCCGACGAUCGUUCAGACGCAGACGAAGACCAACAUUGUUUUAUAUGUUGAAUUUAUAAAAUGCUAGUAAUUUAGAACCCUCCCCCCAAAUCAAGGAGGCAAAAAAUAACGCACUAGUCAUGGAAUUCUCGGGUGCCAA; result = 0.388
Oligonucleotide = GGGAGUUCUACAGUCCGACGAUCCAAAAGAGCCUUUUUGUCUUUCUUUUUUAUUUUUUAAGUAUUGGAAUAAGUCUAAAGAAAAGAAAGUGCCUUAUUUUCCUUCAUGGUCAUUCAGUCAAGUGUCUCAUAAAUGGAAUUCUCGGGUGCCAA; result = 0.631
Oligonucleotide = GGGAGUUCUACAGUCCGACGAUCAUUUCCACUGAAGAGCCAAAAGGCAUUUAAUAUAUAUGUUCAUGAAACAUACCUUUUUCCUCUUUAAAAAAAAAGAUAUACUCAUUUUUUUAUUUUAUGUGUAUGACUGUUGGAAUUCUCGGGUGCCAA; result = 0.554
Oligonucleotide = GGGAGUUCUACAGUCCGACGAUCAGUAUUUCAUAUUUAUAAAUAUGCGUUUAUUUAAAAGGAGAACAAAAGCUUGACUCUGAUUCACAGUUUUGUAUGUAGCUGGUUUGACGUAGUCUUUUGUAUUUUCCCUGUGGAAUUCUCGGGUGCCAA; result = 4.02
Oligonucleotide = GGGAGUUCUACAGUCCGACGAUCUAAGGGUCCUAUGUGGCUGUGUUGUGACAGCCCUUACCCAGGUAAGAGAUGGAUGUCGUGAUGCCUCGUUGCCUUAAUGAGAGCUGAGUCAGCUGUCCUUCACCCUGGGAUGGAAUUCUCGGGUGCCAA; result = 0.253
Oligonucleotide = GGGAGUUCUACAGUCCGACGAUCGUGUGUGUUAGAAGCCCAUUCAUUAGAAGUGUGGUGGUUAUUUGGUAUUAAACUCCAAAUGAGCCAUAGGAAGGCACUACAUGAAAUAAUGCACUGAGUAUGCAAUGCUAUGGAAUUCUCGGGUGCCAA; result = 1.8
Oligonucleotide = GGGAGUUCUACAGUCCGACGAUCACCUCUCUCCACGGAAAGGUCACAGUGGACAGCCCGGGCAGUAGGAUGCAGCCCCAGAGGCUGGUGGCAGUUUCCUGUCCAUUGGUAGGUGACGGCCCCUGGCUCAGGCAUGGAAUUCUCGGGUGCCAA; result = 0.932
Oligonucleotide = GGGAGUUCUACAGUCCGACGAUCAUGAUGAUCACUGUGCUAUAAUGUACUGAAACCACCAUAUUACAGAAAUAUUUACUACAUAUUUUCCAUCUGUAGUUUCUCAGAAGGGCUAUGGAUUAGUUUGAACUGUCUGGAAUUCUCGGGUGCCAA; result = 0.315
Oligonucleotide = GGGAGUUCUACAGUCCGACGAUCCUGGCACUCGGUCUUCACAGAGCACAGUGGGUGGAUACUGCUAACACUUACUGGGCCCCGGUCGAAAUUGUGAAAAAUACCCUAAUGAUUAAUAAGGAAUUUUAAUCUAGUGGAAUUCUCGGGUGCCAA; result = 0.458

Sample 2
Target: RING finger protein unkempt homolog, zinc fingers 1-6, GST-SBP tag (UNK, Homo sapiens, UniProt Q9C0B0, residues 30-357)
Technique: RNA Bind-n-Seq
Form: RNA
Sample: in vitro
Concentration: not given
Notes: RNA with constant flanks, human and mouse sites, ends assumed
Relative to: input RNA pool
Reading: higher = stronger binding
Endpoint: bound/input enrichment
Residues (chain): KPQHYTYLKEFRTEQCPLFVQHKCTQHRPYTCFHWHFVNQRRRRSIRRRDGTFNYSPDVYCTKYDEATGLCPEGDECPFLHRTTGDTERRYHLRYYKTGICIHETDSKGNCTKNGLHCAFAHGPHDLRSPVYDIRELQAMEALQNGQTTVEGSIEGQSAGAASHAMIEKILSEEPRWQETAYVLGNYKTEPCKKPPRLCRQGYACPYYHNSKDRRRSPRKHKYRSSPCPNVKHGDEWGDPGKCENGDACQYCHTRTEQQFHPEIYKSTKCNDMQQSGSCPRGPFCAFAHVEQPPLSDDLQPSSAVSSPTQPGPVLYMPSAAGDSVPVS
Oligonucleotide = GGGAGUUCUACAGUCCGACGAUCAUGGGCCGCCACUGUGGAUACCUGGCCCUUGUCACCUCUCUGUCCUGUGGGGCCGACUGGGUUUUUAUUCCUGAGUGUCCGCCAGACGAUGACUGGGAAGAACACCUUUGUCGCCGGCUCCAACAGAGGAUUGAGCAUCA; result = 0.0829 ratio
Oligonucleotide = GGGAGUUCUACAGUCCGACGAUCUUUAGUGACUAUGGUAAGCUUUUGUUCAUUUGUUUCAGACUUUUUUCUCCUGUAAAAAAAUAGUACUGAUUAACUUUUUUAAAAGAAAGAUUUUACUGUAAAUAUGGAUUUUUUUUUUUUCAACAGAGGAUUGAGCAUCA; result = 7.16 ratio
Oligonucleotide = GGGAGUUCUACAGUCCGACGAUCCAGGUGGCAGAGGAGCUGGGGCAUCGCCCACCGCUGUAGCCAGCUGCAUAGUUUAAGCCGCUUAGCACAGCAGAAUUUGGAAACACUUAAAAAAGCAAAAGGGUGUACAAUCAUAUUUACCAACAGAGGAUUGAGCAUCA; result = 0.278 ratio
Oligonucleotide = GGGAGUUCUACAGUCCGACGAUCAAGAAUCUGAUUGAAAGCAUGCAAAUAAAUGGGUCAGUGUUGAAGAAUGGCUCCCUGACAAAUCAUUUCUCUUUUGAAAAAAAAAAGGCCAGAGUGGCUGUCUUAAUAUCUGGAACAGGACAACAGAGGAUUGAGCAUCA; result = 0.164 ratio
Oligonucleotide = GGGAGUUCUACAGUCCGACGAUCCGCUGUCCAGCUCUAGGGUGGCGGACCUGGGGAACCCGGGUCGAGUCUCCAUGGUGCGCGCCUCGGGUGGAAAGCCUGGCGCAGCGGCGGCCUUAGCAGAACCGCAUACAGCCACCUGGGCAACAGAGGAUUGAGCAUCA; result = 0.0372 ratio
Oligonucleotide = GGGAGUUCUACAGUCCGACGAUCCUUGAACCUAACAAGUCCAUCUUCAAGCAAAUGAAAACUCAUCCACCAUACACCAUGUGCUUUAGAGUGAAAUUCUACCCACAUGAACCCUUGAAGAUUAAAGAAGAGCUCACAAGAUACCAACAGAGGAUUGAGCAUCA; result = 0.195 ratio
Oligonucleotide = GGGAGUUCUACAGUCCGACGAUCGGUGGGACGGAAAAGACAUCACAGUAUGCAGGAAGGCUUGGGUUUGCUCAAAGUACCAGGUAUAGGGAUGAACCUCUGAUGGGCUCUCUGCCCUAGAGUUGGGCAGCCUUCUCACCCCAGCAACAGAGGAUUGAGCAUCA; result = 0.319 ratio
Oligonucleotide = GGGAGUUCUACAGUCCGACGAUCUAGGAAGCAAAUGUCUAUUUCCAAAGCAAUGAGCUUGUUGUGACUGUGAUUUUAUUCUUCUAUAGUAUUUUUUUCCUCAUUUUAACUGAGAGGAGAAAAUAAUACUCUUUUGCAAUAUCCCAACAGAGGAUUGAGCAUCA; result = 0.268 ratio
Oligonucleotide = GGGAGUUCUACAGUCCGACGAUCAAUGAAAUUUAUGUUGCUGGUAUUUUGCAUUUUAAAGUGAUCAAGAUUCAUUAGGCAAACUUUGGUUUAAGUAAACAUAUGUUCAAAAUCAGAUUAACAGAUACAGGUUUCAUAGAGAACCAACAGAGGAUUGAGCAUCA; result = 0.258 ratio
Oligonucleotide = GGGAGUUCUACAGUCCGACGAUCCGGAAUGAAGUUGUCGGUUUAAUUUUCCGUUUAACAAUAUUUGGUGCAGUAACGUACUUCACUAUUAAAUGGAUGGUAGAUGCCAUUGACCCCACCAGGAAGCAGAAGGUAGAAGCUCAGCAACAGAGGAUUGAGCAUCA; result = 0.351 ratio
Oligonucleotide = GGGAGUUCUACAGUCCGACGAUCUUUUUCUUUUUUUUUUUUUAAUUUUUCCCCCCAACCAUCGUGAUUUGUCUUUUCAUGCAGAUUAGUUAGAAUUCACUGCCAGGUUUCUUCUGCCCACCAAAAUGAUCCAGUCUGGAAUAACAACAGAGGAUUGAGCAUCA; result = 13 ratio

Sample 3
Target: human cyclin B2
Effect on: peptide binding
Technique: yeast competitive growth sequencing
Form: peptide
Organism: Saccharomyces cerevisiae
Strain: cyclin B2-Cln2 fusion
Concentration: concentration not given
Notes: peptide tiling library
Reading: direction not given
Endpoint: binding enrichment score
Sequence = VRDLSYRLVFLACCVA; result = 0.00544
Sequence = PARRRLRLSVDEVSSP; result = 0.296
Sequence = DSDSDSEGGAAGGEAD; result = 0.818
Sequence = EPKTLFLGAGDFQF; result = 0.221
Sequence = AIRKMREDRWAVIAKM; result = 0.109
Sequence = ALTMEALEDPSPELME; result = 1.65
Sequence = RRVLCFDS; result = 0.338
Sequence = TSPGPVLLHPSPSTTQ; result = 0.0316
Sequence = KPKPVKPVTFSTGIKM; result = -0.502
Sequence = EAAPPTQEAQGETEPT; result = -0.335
Sequence = ALLRRLQDVANDRGSH; result = -0.155
Sequence = RNRGPKLNAMLRLGVL; result = 0.219
Sequence = DTERAHSTLDEDLERW; result = 0.664
Sequence = RKLHFEDEVT; result = -0.187
Sequence = NARRSLNFGGSTGT; result = -0.0262
Sequence = LENIEPLQVSFAVLSS; result = -0.245
Sequence = QNPCGSKACRRLFGPV; result = -0.0578
Sequence = RSLKLDGLLEEN; result = 0.273

Other studies, line by line
Molecule = PhoQ, residues 284 288 289 292 302 303 AMDMFI; target = PhoP, residues 12 14 15 18 19 NFCKL (Escherichia coli, UniProt P23836); assay = Sort-seq, item: YFP reporter; system = E. coli; conditions = PhoQ-PhoP variant library, added: 10 µM Mg2+; how to read = relative to: high Mg2+ state, higher = stronger signaling; endpoint = fold induction; result = 0.447
